Assay results gathered from unrelated publications.
Each numbered part is a random draw from the data of one study; scales do not carry over between parts.
UniProt P42685, sequence (whole entry, looked up): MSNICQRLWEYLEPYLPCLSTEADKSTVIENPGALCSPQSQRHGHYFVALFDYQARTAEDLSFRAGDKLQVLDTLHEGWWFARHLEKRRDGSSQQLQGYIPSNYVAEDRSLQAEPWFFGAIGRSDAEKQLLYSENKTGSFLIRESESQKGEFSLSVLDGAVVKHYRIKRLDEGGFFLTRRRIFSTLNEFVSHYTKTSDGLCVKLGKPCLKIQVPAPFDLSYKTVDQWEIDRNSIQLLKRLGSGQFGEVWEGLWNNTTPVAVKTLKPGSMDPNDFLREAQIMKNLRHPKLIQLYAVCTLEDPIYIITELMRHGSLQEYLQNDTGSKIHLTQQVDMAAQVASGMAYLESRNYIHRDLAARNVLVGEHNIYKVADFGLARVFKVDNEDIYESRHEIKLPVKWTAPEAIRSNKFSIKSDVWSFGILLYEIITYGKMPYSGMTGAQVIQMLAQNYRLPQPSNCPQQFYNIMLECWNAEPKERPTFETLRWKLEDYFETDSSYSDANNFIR
UniProt P42336, sequence (whole entry, unmodified, looked up): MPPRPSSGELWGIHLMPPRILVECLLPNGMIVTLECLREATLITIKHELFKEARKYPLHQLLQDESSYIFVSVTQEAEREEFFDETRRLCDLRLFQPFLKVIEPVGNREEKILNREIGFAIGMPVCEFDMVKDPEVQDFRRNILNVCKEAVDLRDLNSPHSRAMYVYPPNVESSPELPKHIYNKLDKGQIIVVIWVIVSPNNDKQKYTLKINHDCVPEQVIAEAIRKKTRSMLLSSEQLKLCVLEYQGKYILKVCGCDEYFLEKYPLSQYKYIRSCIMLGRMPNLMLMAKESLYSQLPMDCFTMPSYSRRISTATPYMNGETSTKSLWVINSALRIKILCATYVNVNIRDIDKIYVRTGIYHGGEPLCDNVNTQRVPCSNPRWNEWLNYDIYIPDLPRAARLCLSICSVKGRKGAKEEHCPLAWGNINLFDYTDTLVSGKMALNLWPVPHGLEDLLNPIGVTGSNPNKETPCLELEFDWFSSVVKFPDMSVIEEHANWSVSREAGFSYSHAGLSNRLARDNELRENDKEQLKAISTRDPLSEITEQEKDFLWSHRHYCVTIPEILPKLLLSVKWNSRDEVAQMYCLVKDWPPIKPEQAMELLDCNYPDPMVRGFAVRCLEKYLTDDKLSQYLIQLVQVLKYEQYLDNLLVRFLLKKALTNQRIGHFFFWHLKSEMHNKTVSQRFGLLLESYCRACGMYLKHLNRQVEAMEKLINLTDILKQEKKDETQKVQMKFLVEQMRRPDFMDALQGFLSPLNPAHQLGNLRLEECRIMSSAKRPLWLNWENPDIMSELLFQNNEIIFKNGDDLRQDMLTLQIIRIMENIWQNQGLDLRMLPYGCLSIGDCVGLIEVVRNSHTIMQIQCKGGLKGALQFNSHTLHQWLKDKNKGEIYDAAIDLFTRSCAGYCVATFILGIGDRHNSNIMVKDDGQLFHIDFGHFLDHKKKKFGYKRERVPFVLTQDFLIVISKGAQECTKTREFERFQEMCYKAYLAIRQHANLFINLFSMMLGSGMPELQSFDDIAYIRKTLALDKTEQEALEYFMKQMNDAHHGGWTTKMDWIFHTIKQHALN
UniProt Q9UEE5, sequence (whole entry, looked up): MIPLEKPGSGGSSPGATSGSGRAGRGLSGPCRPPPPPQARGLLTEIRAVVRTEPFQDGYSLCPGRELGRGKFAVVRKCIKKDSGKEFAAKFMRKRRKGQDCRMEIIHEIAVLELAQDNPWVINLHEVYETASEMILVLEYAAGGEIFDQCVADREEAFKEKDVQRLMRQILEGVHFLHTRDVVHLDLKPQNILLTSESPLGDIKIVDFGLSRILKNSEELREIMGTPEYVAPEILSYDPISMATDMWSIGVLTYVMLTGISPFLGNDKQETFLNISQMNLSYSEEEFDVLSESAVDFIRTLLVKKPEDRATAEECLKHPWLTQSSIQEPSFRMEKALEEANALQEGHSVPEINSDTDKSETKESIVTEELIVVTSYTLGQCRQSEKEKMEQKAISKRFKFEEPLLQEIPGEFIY
UniProt P22607, sequence (whole entry, looked up): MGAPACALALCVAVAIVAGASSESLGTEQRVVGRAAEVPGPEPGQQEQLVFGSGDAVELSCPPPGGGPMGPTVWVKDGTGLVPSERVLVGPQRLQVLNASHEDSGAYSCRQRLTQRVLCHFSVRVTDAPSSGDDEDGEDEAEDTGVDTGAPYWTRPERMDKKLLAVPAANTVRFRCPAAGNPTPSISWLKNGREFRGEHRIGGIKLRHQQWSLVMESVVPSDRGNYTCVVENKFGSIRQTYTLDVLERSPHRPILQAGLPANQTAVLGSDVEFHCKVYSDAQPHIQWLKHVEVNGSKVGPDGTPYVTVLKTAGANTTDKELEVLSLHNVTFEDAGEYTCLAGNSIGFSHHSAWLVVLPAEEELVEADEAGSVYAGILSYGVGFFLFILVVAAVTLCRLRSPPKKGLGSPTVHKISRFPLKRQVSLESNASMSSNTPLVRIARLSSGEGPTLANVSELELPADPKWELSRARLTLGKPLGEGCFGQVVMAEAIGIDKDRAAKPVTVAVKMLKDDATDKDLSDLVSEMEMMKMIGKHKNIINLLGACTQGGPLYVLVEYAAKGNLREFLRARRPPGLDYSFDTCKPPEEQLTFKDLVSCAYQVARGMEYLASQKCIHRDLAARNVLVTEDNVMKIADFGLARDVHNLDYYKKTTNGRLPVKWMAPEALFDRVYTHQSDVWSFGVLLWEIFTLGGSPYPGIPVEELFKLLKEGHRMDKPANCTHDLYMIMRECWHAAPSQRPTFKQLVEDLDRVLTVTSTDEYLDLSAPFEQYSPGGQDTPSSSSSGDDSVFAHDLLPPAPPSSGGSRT
UniProt Q02763, sequence (whole entry, looked up): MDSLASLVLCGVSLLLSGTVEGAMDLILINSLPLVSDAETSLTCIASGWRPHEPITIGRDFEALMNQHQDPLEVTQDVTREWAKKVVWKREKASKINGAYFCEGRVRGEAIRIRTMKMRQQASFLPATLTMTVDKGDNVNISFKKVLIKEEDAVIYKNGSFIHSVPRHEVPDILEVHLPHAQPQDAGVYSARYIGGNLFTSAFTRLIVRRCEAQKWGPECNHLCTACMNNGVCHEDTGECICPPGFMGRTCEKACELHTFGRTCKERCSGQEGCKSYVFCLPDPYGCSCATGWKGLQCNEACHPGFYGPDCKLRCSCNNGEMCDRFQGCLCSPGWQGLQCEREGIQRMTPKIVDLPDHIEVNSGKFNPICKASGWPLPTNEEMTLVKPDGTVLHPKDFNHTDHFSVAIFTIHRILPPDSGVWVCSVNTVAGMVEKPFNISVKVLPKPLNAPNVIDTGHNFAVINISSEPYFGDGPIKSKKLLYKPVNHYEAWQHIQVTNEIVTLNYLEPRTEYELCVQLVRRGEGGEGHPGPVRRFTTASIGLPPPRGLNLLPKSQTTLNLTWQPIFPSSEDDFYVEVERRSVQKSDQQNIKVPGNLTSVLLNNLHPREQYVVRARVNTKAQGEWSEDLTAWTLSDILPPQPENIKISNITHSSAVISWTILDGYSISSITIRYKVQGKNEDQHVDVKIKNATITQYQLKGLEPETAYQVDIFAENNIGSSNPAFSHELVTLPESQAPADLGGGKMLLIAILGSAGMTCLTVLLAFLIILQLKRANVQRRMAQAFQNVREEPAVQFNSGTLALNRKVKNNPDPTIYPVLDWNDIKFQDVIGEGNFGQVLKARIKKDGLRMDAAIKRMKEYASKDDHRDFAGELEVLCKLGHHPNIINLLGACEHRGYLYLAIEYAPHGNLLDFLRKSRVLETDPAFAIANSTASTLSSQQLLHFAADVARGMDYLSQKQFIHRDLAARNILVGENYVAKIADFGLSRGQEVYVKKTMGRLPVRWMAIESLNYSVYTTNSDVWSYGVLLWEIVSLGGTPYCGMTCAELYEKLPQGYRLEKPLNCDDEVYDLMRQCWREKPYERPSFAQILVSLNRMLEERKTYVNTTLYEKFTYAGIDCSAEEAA
UniProt P78368, sequence (whole entry, looked up): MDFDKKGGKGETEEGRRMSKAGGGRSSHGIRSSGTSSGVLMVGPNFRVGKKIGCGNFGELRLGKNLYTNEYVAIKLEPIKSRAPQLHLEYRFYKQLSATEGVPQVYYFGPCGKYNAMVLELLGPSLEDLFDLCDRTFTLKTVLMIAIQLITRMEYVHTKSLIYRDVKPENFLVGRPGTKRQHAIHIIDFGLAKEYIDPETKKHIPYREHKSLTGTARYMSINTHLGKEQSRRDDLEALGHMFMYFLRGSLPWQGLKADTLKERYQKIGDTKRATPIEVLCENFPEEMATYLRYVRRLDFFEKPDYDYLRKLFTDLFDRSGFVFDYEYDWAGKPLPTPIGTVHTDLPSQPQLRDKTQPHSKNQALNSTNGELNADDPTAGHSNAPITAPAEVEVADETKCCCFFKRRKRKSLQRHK

Sample 1
Target: Calcium/calmodulin-dependent protein kinase type II subunit alpha (CAMK2A, Homo sapiens, UniProt Q9UQM7)
UniProt Q9UQM7, sequence (whole entry, looked up): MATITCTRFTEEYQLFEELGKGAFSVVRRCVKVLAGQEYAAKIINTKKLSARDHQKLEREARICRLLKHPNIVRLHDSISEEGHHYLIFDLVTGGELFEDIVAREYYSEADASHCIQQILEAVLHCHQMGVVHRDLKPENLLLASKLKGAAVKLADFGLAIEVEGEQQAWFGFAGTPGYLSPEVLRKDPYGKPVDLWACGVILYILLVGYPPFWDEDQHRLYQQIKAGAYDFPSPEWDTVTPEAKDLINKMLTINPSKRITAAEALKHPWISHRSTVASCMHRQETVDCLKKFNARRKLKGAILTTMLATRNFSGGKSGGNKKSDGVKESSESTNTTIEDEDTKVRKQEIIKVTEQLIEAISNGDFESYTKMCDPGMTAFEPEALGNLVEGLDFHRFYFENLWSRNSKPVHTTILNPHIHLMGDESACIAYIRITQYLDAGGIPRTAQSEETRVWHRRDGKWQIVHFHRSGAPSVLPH
Observed: enzyme activity
Mode: inhibitor
Concentration: 10 µM
Structure (SMILES) | inhibition [%]
CC(C)(C(=O)O)c1ccc(C(O)CCCN2CCC(C(O)(c3ccccc3)c3ccccc3)CC2)cc1 (stereo not drawn) | -14
C[C@@H]1O[C@@H](O[C@H]2[C@H](Oc3cc(O)c(C(=O)CCc4ccc(O)cc4)c(O)c3)O[C@H](CO)[C@@H](O)[C@@H]2O)[C@H](O)[C@H](O)[C@H]1O | -17
C[C@H](CO[C@@H]1O[C@H](CO)[C@@H](O)[C@H](O)[C@H]1O)[C@H]1CC[C@@]2(CC[C@]3(C)[C@H](CC[C@@H]4[C@@]5(C)CC[C@H](O[C@@H]6O[C@H](CO)[C@@H](O)[C@H](O)[C@H]6O[C@@H]6O[C@H](CO)[C@@H](O)[C@H](O)[C@H]6O)[C@@](C)(CO)[C@@H]5CC[C@]43C)[C@H]2O)CO1 | -6
Cc1oc(=O)oc1CN1CCN(c2cc3c(cc2F)c(=O)c(C(=O)O)c2n3C(C)S2)CC1 (stereo not drawn) | -3
CCOC(=O)/C=C(C)/C=C/C=C(C)/C=C/c1c(C)cc(OC)c(C)c1C | -7
NC1[C@H]2CN(c3nc4c(cc3F)c(=O)c(C(=O)O)cn4-c3ccc(F)cc3F)C[C@@H]12 (stereo partly drawn) | -9
O=c1cc(-c2ccccc2)oc2cc(O)cc(O)c12 | -23
COc1ccccc1O | 4
Nc1nc(/C(=C/CC(=O)O)C(=O)N[C@@H]2C(=O)N3C(C(=O)O)=CCS[C@H]23)cs1 | -2
CC(=O)O[C@@H]1C[C@@]23C[C@@]24CC[C@H](O[C@@H]2OC[C@@H](O)[C@H](O)[C@H]2O)C(C)(C)[C@@H]4CC[C@H]3[C@]2(C)C[C@@H]3O[C@]4(C[C@@H](C)[C@@H]3[C@@]12C)OC[C@@]1(C)O[C@@H]41 | -4
COc1cc(-c2coc3cc4c(c(O)c3c2=O)OCO4)cc(O)c1OC | 9
C[C@@H]1O[C@@H](O[C@H]2[C@H](OC(=O)[C@]34CCC(C)(C)C[C@H]3C3=CC[C@@H]5[C@@]6(C)C[C@H](O)[C@H](O[C@@H]7O[C@H](CO)[C@@H](O)[C@H](O)[C@H]7O)[C@](C)(CO)[C@@H]6CC[C@@]5(C)[C@]3(C)C[C@H]4O)OC[C@H](O)[C@@H]2O)[C@H](O)[C@H](O)[C@H]1O[C@@H]1OC[C@@H](O)[C@H](O[C@@H]2OC[C@](O)(CO)[C@H]2O)[C@H]1O | -2
CC(C)=CCC[C@](C)(O)[C@H]1CC[C@]2(C)[C@@H]1[C@H](O)C[C@@H]1[C@@]3(C)CC[C@H](O)C(C)(C)[C@@H]3[C@@H](O[C@@H]3O[C@H](CO)[C@@H](O)[C@H](O)[C@H]3O[C@@H]3OC[C@@H](O)[C@H](O)[C@H]3O)C[C@]12C | -55
COC(=O)[C@]12CCC(C)(C)C[C@H]1C1=CC[C@@H]3[C@@]4(C)CCC(=O)C(C)(C)[C@@H]4CC[C@@]3(C)[C@]1(C)CC2 | -7
C=C1C[C@@]2(O)O[C@@]3(CC2=C(C)C)[C@@H](C)CC[C@@H]13 | -16
COc1ccc(/C=C/C(=O)C(C)(C)C(=O)/C=C/c2ccc(OC)c(OC)c2)cc1OC | -35
CCCCC/C=C/C(=O)CCc1ccc(O)c(OC)c1 | -12
CC(=O)Nc1ccn([C@@H]2O[C@H](CO)[C@@H](O)[C@H]2O)c(=O)n1 | -27
O=C(OC[C@H]1O[C@@H](OC(=O)c2cc(O)c(O)c(O)c2)[C@H](OC(=O)c2cc(O)c(O)c(O)c2)[C@@H](OC(=O)c2cc(O)c(O)c(O)c2)[C@@H]1OC(=O)c1cc(O)c(O)c(O)c1)c1cc(O)c(O)c(O)c1 | -72
CCCCCCC/C=C/C(=O)N1C(=O)C(C(C)=O)=C(O)[C@H]1CC(C)C | 36

Sample 2
Compound: C[C@H](c1ccc(F)cc1)N(Cc1cccc(C(=O)O)c1)C(=O)c1cnc2ccccc2c1
Technique: competition with immobilised ligand
Concentration: 1 µM
target | test | remaining binding [%]
Tyrosine-protein kinase ABL1, phosphorylated (ABL1, Homo sapiens, UniProt P00519, H396P) | cell-free assay | 100
LRRK2 (Homo sapiens, UniProt Q5S007) | cell-free assay | 100
CAMK2G (Homo sapiens, UniProt Q13555) | cell-free assay | 94
PIP4K2C (Homo sapiens, UniProt Q8TBX8) | cell-free assay | 81
MUSK (Homo sapiens, UniProt O15146) | cell-free assay | 76
PIK3CA (Homo sapiens, UniProt P42336, M1043I) | cell-free assay | 100
PIK3C2G (Homo sapiens, UniProt O75747) | cell-free assay | 100
EPHA4 (Homo sapiens, UniProt P54764) | cell-free assay | 92
eIF-2-alpha kinase GCN2, C-terminal kinase domain (EIF2AK4, Homo sapiens, UniProt Q9P2K8, S808G) | cell-free assay | 100
HIPK4 (Homo sapiens, UniProt Q8NE63) | cell-free assay | 93
STK32A (Homo sapiens, UniProt Q8WU08) | binding | 100
PIK3CA (Homo sapiens, UniProt P42336, I800L) | cell-free assay | 61
FRK (Homo sapiens, UniProt P42685) | cell-free assay | 77
TESK1 (Homo sapiens, UniProt Q15569) | cell-free assay | 100
Tyrosine-protein kinase ABL1, non-phosphorylated (ABL1, Homo sapiens, UniProt P00519, F317I) | binding | 72
MAP3K12 (Homo sapiens, UniProt Q12852) | cell-free assay | 100
FGFR3 (Homo sapiens, UniProt P22607) | cell-free assay | 82
NEK2 (Homo sapiens, UniProt P51955) | cell-free assay | 94
COQ8A (Homo sapiens, UniProt Q8NI60) | cell-free assay | 85
PRKCI (Homo sapiens, UniProt P41743) | cell-free assay | 100
PRKCE (Homo sapiens, UniProt Q02156) | cell-free assay | 95
PRKAA1 (Homo sapiens, UniProt Q13131) | cell-free assay | 100
CAMK1G (Homo sapiens, UniProt Q96NX5) | cell-free assay | 100
IKBKB (Homo sapiens, UniProt O14920) | cell-free assay | 100
STK17A (Homo sapiens, UniProt Q9UEE5) | cell-free assay | 86

Sample 3
Structure (SMILES): Cc1cc2ncc(-c3ccccc3)nc2cc1C
Observed: enzyme activity
Mode: inhibitor
Concentration: 0.5 µM
Reference: control
target | remaining activity [%]
TBK1 (Homo sapiens, UniProt Q9UHD2) | 93.8
EPHA3 (Homo sapiens, UniProt P29320) | 109
MAPKAPK2 (Homo sapiens, UniProt P49137) | 95.9
LCK (Homo sapiens, UniProt P06239) | 99.5
FRK (Homo sapiens, UniProt P42685) | 99.1
CSNK1G2 (Homo sapiens, UniProt P78368) | 86.5
TAOK2 (Homo sapiens, UniProt Q9UL54) | 105
FGFR1 (Homo sapiens, UniProt P11362) | 91.9
MAPK3 (Homo sapiens, UniProt P27361) | 106
TEK (Homo sapiens, UniProt Q02763) | 99.7
MAP3K5 (Homo sapiens, UniProt Q99683) | 107
GSK3B (Homo sapiens, UniProt P49841) | 79.5
MAP3K14 (Homo sapiens, UniProt Q99558) | 112

Sample 4
Cell line: mouse MPNST tumor cells
Technique: high-content nuclear imaging
Measured: cell number
Concentration: 10 µM
Time: 12 h
Setting: mean of 2 replicates
Reference: plate mean
Direction: higher = more cells
SMILES | nuclei count [z-score]
CN(Cc1ccccc1)C(=O)[C@H](Cc1ccc2ccccc2c1)NC(=O)[C@@H]1C[C@@H](O)CN1C(=O)c1cn(C)c2ccccc12 | 0.555
CC(=O)N[C@@H](Cc1c[nH]c2ccccc12)C(=O)OCc1cc(C(F)(F)F)cc(C(F)(F)F)c1 | 0.585
CSc1nc(N)cc(Oc2ccc(-c3nc(Nc4cccc(C(F)(F)F)c4)n[nH]3)cc2)n1 | -3.92
COc1cccc(-c2cc(=O)c3ccccc3o2)c1N | 6
CC(=O)CC(c1ccc([N+](=O)[O-])cc1)c1c(O)c2ccccc2oc1=O (stereo not drawn) | 1.69
CCN1CCCC1CNC(=O)c1cc(S(N)(=O)=O)ccc1OC (racemic) | 0.971
Cc1cc(C)c2nc(-c3ccccn3)cc(C(=O)Nc3ccc(S(=O)(=O)Nc4onc(C)c4C)cc3)c2c1 | 1.16
Nc1[nH]ncc1-c1cc(Cl)ccc1Oc1cc(F)c(S(=O)(=O)Nc2cscn2)cc1Cl | -1.41
O=C(O)c1ccc(N2N=C(Cc3ccccc3)C(=Cc3ccc(-c4ccccc4F)o3)C2=O)cc1 | 0.126
COCCc1ccc(OCC(O)CNC(C)C)cc1 (racemic) | 2.08
Clc1cccc(Nc2nnc(-c3ccccc3)c3ccccc23)c1 | 4.74
OCCN1CCN(CCCN2c3ccccc3Sc3ccc(C(F)(F)F)cc32)CC1 | -7.25
CCOC(=O)C1=C(C)NC(=S)NC1c1cccc(O)c1 (stereo not drawn) | 1.58
c1ccc2c(c1)Cc1c(Nc3ccc4c(c3)OCCO4)n[nH]c1-2 | -4.21

A few entries again (sample 1):
Structure (SMILES) | inhibition [%]
CC(=O)O[C@@H]1C[C@@]23C[C@@]24CC[C@H](O[C@@H]2OC[C@@H](O)[C@H](O)[C@H]2O)C(C)(C)[C@@H]4CC[C@H]3[C@]2(C)C[C@@H]3O[C@]4(C[C@@H](C)[C@@H]3[C@@]12C)OC[C@@]1(C)O[C@@H]41 | -4
C=C1C[C@@]2(O)O[C@@]3(CC2=C(C)C)[C@@H](C)CC[C@@H]13 | -16
COc1cc(-c2coc3cc4c(c(O)c3c2=O)OCO4)cc(O)c1OC | 9
C[C@@H]1O[C@@H](O[C@H]2[C@H](OC(=O)[C@]34CCC(C)(C)C[C@H]3C3=CC[C@@H]5[C@@]6(C)C[C@H](O)[C@H](O[C@@H]7O[C@H](CO)[C@@H](O)[C@H](O)[C@H]7O)[C@](C)(CO)[C@@H]6CC[C@@]5(C)[C@]3(C)C[C@H]4O)OC[C@H](O)[C@@H]2O)[C@H](O)[C@H](O)[C@H]1O[C@@H]1OC[C@@H](O)[C@H](O[C@@H]2OC[C@](O)(CO)[C@H]2O)[C@H]1O | -2
